Experimental data from different studies.
Numbered parts are unrelated; each lists some results of a single study.
UniProt O24408, sequence (whole entry, looked up): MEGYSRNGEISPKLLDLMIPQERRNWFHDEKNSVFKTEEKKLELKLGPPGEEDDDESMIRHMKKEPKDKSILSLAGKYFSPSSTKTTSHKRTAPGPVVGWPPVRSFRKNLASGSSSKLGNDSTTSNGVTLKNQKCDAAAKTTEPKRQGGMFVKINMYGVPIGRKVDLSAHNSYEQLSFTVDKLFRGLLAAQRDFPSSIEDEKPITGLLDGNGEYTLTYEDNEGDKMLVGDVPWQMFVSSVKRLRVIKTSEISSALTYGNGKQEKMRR
UniProt Q93YR9, sequence (whole entry, looked up): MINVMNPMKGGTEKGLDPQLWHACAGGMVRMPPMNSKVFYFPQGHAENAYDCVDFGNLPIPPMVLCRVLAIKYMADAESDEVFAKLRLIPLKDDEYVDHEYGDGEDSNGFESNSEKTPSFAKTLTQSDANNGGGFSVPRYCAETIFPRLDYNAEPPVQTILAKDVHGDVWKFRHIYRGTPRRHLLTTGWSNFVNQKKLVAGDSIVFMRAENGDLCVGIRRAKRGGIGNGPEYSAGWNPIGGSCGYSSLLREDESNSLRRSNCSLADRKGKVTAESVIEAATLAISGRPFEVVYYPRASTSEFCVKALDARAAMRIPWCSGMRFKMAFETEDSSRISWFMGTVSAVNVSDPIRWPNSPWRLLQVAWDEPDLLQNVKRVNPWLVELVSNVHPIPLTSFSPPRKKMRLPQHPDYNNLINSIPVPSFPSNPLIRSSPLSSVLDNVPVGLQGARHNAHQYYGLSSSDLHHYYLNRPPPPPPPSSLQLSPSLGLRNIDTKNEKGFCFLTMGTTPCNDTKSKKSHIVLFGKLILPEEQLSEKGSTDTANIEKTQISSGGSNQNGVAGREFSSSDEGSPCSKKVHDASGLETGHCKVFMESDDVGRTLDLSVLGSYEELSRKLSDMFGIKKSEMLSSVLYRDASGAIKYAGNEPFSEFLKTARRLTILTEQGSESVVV
UniProt O24409, sequence (whole entry, looked up): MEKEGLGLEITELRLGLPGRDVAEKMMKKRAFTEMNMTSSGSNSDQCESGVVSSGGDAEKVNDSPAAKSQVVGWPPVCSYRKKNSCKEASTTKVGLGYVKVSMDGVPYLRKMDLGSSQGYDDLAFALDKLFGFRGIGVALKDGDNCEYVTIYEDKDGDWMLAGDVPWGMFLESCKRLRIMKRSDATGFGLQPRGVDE
UniProt Q8LAL2, sequence (whole entry, looked up): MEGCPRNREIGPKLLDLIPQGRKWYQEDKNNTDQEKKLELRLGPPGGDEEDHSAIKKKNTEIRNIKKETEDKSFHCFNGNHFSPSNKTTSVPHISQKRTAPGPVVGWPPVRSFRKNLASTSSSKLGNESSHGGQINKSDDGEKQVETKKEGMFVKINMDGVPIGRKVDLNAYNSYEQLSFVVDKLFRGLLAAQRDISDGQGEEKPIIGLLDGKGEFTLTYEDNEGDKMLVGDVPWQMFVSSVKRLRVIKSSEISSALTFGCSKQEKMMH
UniProt P93024, sequence (whole entry, looked up): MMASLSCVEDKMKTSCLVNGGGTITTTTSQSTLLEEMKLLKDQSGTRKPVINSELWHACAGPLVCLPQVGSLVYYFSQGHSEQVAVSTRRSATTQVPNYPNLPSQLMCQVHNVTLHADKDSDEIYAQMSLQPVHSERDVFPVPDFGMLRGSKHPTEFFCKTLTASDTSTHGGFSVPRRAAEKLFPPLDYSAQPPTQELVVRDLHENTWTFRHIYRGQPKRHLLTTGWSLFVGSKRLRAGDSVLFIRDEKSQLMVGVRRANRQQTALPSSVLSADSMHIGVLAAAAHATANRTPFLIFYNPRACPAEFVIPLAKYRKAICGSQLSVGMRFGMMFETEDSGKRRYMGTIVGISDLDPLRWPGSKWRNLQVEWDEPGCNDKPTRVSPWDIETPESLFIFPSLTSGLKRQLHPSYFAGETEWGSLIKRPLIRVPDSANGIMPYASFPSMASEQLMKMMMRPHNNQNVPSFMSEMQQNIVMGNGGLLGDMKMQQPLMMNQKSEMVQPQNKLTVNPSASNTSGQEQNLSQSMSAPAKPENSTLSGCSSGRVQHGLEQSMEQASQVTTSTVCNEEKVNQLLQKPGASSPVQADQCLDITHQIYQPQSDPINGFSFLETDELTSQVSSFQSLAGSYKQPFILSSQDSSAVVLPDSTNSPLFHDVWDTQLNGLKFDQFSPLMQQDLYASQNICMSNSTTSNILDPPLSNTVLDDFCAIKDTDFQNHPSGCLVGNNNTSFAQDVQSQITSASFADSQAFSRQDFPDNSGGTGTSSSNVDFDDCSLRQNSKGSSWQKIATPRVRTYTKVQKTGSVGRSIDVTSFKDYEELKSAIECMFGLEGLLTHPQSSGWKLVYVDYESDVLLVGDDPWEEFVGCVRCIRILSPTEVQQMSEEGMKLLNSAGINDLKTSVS

Set 1 — technique: universal PBM; molecule type: double-stranded DNA, one strand shown; matrix: in vitro; concentration: 600 nM; direction: higher = stronger binding
Target: Sal-like protein 4, full length isoform A (SALL4, Homo sapiens, UniProt Q9UJQ4, residues 1-1053)
UniProt Q9UJQ4, sequence (whole entry, looked up): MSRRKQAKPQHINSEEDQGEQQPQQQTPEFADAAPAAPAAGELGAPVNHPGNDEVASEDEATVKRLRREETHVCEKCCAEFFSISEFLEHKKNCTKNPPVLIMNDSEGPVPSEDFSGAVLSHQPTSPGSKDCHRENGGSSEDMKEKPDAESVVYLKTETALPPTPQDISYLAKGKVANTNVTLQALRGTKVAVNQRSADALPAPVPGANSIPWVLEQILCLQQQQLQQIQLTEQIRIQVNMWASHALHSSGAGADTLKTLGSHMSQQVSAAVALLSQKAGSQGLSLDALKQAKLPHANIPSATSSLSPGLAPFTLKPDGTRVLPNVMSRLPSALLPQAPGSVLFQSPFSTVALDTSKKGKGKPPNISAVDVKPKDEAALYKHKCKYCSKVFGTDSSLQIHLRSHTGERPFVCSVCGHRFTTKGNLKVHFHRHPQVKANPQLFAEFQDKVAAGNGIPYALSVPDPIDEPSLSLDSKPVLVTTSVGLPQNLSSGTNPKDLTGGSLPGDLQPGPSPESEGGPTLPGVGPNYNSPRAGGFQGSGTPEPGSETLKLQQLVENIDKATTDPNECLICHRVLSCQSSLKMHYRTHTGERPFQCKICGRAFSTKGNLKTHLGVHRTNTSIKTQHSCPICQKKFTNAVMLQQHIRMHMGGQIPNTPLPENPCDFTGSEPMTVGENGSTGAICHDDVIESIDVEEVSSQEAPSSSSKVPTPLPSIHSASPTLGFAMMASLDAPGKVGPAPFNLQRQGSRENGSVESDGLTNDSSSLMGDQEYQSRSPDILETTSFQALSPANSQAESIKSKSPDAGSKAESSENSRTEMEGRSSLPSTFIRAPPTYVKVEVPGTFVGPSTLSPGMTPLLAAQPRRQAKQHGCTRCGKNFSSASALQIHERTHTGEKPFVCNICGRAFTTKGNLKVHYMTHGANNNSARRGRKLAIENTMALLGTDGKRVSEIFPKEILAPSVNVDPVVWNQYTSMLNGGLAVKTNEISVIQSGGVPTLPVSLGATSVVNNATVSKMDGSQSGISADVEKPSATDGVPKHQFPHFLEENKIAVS
Notes: 8-mer, flanks averaged, mean of replicates
Oligonucleotide	E-score
TAAACTGA	0.169
CCGAAGTC	-0.111
CAGAGCGA	-0.126
AAGCTATG	0.0747
CTTCGTAC	-0.00246
ACTGAGAA	-0.00597
AGACCCGG	-0.328
TAAGTTCA	0.0957
GATAGGGA	-0.0495
GTCAGTGA	0.0307
CGCGCGAC	-0.294
CGCCAACA	0.0198

Set 2 — Molecule: B1 (IAA12); technique: two-hybrid; reference: out of 4 tests; direction: higher = firmer interaction
B1: IAA12 (Arabidopsis thaliana, UniProt Q38830); chain MRGVSELEVGKSNLPAESELELGLGLSLGGGAWKERGRILTAKDFPSVGSKRSAESSSHQGASPPRSSQVVGWPPIGLHRMNSLVNNQAMKAARAEEGDGEKKVVKNDELKDVSMKVNPKVQGLGFVKVNMDGVGIGRKVDMRAHSSYENLAQTLEEMFFGMTGTTCREKVKPLRLLDGSSDFVLTYEDKEGDWMLVGDVPWRMFINSVKRLRIMGTSEASGLAPRRQEQKDRQRNNPV
partner	positive tests
IAA13 (Arabidopsis thaliana, UniProt Q38831)	2
ARF16 570-670 (Arabidopsis thaliana, UniProt Q93YR9)	0
IAA19 (Arabidopsis thaliana, UniProt O24409)	4
ARF5 788-902 (Arabidopsis thaliana, UniProt P93024)	4
IAA18 (Arabidopsis thaliana, UniProt O24408)	3
IAA26 (Arabidopsis thaliana, UniProt Q8LAL2)	1

Set 3 — technique: RNA Bind-n-Seq; molecule type: RNA; matrix: in vitro; concentration: 365 nM; reference: no-protein control; direction: higher = stronger binding
Target: RNA binding protein fox-1 homolog 2, RRM domain, GST-SBP tag (RBFOX2, Homo sapiens, UniProt O43251-10, residues 100-194)
Notes: natural RNA segment, single round, ends assumed
Shared flanks, not repeated: GGGAGUUCUACAGUCCGACGAUC … UGGAAUUCUCGGGUGCCAA
Residues (chain): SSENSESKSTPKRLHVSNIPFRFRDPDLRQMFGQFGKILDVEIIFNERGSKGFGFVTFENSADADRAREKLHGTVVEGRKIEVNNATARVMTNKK
Oligonucleotide	RBNS enrichment (R)
AGGCCUCAACCCCCCACCAUCUGUCUGUCCUCAGGGACCCUCCAGUAGGGGGACCAUUGGGGACAUCACAGAAGCCACUGUCCAGAUGGGGCUCAGGCCAGUGGGUGUGG	0.293
CCGCUGACUCCUGCUGUGUCCUGAGGUGCAUUUCCUGUUGUACACACAAGGGCCAGGCUCCAUUCUCCCUCCCUUUCCACCAGUGCCACAGCCUCGUCUGGAAAAAGGAC	0.386
AACCAAGCUGGGUCUAUAAGGAAUUGCACAUGAGAUGGCACACAUAUUUAUGCUGUCUGAAGGUCACGAUCAUGUUACCAUAUCAAGCUGAAAAUGUCACCACUAUCUGG	0.278
UUGGUGUCAACCUUUUUCACUGAAUAAAAAUUUAACUGGGUUAAAAAAGAAAAACAAUGAAAAAAAAUAAAGACACCGCCAUCACCUAUUUAAAUAUCCACUGUGUGUGU	0.742
ACCUUGUGGCCGCCUGAGACCCUCGCGCCCCCCGCGCCCCUCUUUUUCCCCUUGAUGGAAAUUGACCAUACAAUUUCAUCCUCCUUCAGGGGAUCAAAAGGACGGAGUGG	0.243
CCUAGUGUUAUCUGUUAUCUUACAAGCCUUUGCCUCUGUGCCUUUUCCUCAUGCUUUUUUGCUUAGAUUACUCUUUGACUGUACCUUCUGUUCAAAUUUGCUUCCUUCAU	0.896
UCCCCUUGUGGCUAAACGAAAGCAAAUGUCCGGAAGUCUUGAGAAGCUGUGUCGUGUUCCCUGUGGAAAUGAGUUGAUGUGUGCCAGUGCUGAGCACCUGGUAUUGAGGU	3.09

Set 4 — technique: RNA Bind-n-Seq; molecule type: RNA; matrix: in vitro; concentration: not given; reference: input RNA pool; direction: higher = stronger binding
Target: RING finger protein unkempt homolog, zinc fingers 1-6, GST-SBP tag (UNK, Homo sapiens, UniProt Q9C0B0, residues 30-357)
UniProt Q9C0B0, sequence (30-357, looked up): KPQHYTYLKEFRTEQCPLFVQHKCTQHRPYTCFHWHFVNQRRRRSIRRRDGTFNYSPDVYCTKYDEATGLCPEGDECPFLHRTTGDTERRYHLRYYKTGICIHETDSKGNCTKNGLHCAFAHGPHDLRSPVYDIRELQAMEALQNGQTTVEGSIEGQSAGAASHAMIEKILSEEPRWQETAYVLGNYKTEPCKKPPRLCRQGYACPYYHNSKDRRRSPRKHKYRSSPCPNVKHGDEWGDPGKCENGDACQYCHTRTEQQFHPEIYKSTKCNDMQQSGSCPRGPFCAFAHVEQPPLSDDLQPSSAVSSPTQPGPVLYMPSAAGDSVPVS
Notes: RNA with constant flanks, human and mouse sites, ends assumed
Shared flanks, not repeated: GGGAGUUCUACAGUCCGACGAUC … CAACAGAGGAUUGAGCAUCA
Oligonucleotide	bound/input enrichment
ACCAUUAAACUGAAUCAGAAAUCCAUUUUCUGGCUGAAUAAAAAGUUUGGCUUGCCUGUGUAAUGCCCACUCCCUUCCCCCUGGCUCCCUAGUGAUGGGACAUAUAUGAGAGAGAAGUGU	0.205 ratio
UGGCAUCUCUUUCCUCCUGAAGAUACUCCUUUCCUUUAUCCAACUAGAAUCCCUUAUGAAGAAUCUAGUGUGUUCAGUAAAAUCAAUGUUGUCAAUCCUGAUUUAAAGCGUUUUCCUCAG	0.519 ratio
CAGAGAGAGGCUGUGCUUGCAGCUUACUGGCGAGGCCAGUGCAUCAAAGAUGCCCACCUCCCGCCUGGAUCCAUGGCAGCUGUUGGUUUGUCCUGGGAGGAAUGUAAACAGCGCUGCCCC	0.107 ratio
GUUUUUACCCCAACUUUGUCAGAUAUUUCCAUUGAUAAAUUGAAGGUAUCAAGCCCAGAGCUUCCCAAGCCAUGGGGUGAUGGAGACCUGCCACUGGAAGAAGAGAACCCUAACUCACCU	0.172 ratio
GUGUUGCUGGACCUUCAGAGUUACGACAGUGAUGUGCAAGGCAAACAAGAAACUGACAGCCUUUUGAACAAAAUAGAAGAAAAAAUGAAAGAAUUGAGUCAAGACAGUACUGGGCGGGUG	2.09 ratio
UGUGGCUGAGGACUUUGUACAUUGUUUUGUUUUUUUUUUUUUUUGGUUUUGUCUUUUUUUAAUAGUCAUUCCAAGUAUCCAUGAAAUAAGUGGUUACAGGAAGUCCCUCACCCUCCCAAA	2.93 ratio
CCUCUCCCCAGUCUGCUCCUGGAAACUUGGACAAUAGUAAAAGUGGAGAAAUUAAAGGUAAUGGAAGUGGUGGAAGCAGAGAAAAUAGUACUGUUGACUUCAGCAAGGUUGAUAUGAAUU	0.897 ratio
GAAAAUGAGCAGACACUGAAUGUGAACCCCACUGACCCUGACAAUUUAAGCGACUCUCUCUUUUCUGGAGAUGAAGAAAAUGCUGGCACUGAAGAAAUAAAGAAUGAAAUAAAUGGAAAU	0.339 ratio

Set 5 — technique: protein-binding microarray; molecule type: double-stranded DNA, one strand shown; matrix: in vitro; concentration: 2200 nM top; notes: 60-bp whole probe; added: salmon DNA 0.4 mg/ml; reference: random background probes; direction: higher = stronger binding; shared flanks, not repeated: GCCTAGCAC … GTCTTGATTCGCTTGACGCTGCTG
Target: Interferon regulatory factor 7, full length, phosphomimetic (IRF7, Homo sapiens, UniProt Q92985, residues 1-503, S471D/S472D/S475D/S476D/S477D/S483D/S484D/S487D)
Residues (chain): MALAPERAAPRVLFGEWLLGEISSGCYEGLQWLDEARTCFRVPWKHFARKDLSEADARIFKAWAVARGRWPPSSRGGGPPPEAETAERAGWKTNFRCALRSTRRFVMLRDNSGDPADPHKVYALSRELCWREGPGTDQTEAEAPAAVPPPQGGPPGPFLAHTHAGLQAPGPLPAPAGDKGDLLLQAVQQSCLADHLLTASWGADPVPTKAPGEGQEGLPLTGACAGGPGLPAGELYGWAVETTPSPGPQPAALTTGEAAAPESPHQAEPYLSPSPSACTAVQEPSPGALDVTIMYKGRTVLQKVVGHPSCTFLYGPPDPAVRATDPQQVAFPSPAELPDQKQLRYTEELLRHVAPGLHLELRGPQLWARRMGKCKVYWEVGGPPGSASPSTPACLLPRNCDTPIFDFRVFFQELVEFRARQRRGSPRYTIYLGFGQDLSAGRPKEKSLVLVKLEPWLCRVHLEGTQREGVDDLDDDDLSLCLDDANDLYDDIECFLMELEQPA
Oligonucleotide	fitted relative affinity
AACGGTTTCCTTTTCCTGACGTGCTAG	5.28 z-score
GACGGTATCGGATTGGGGACGTGCTAG	0.582 z-score
TCATCCATGGGTATGGCACTGTGCTAG	0.0436 z-score
TTAGGTATCGACTTTCGGTTCGTGCTA	11.4 z-score
CTAGATTTCAGTTCCGATTAGTGCTAG	2.39 z-score
TACAGGATGGTTTTCAGAGAGTGCTAG	0.0215 z-score
TTAGTACTGAGTTTCGATTAGTGCTAG	4.3 z-score
GACGAACTGGGGTATCGAGAGGTGCTA	-0.263 z-score
TTAGGTTTCCTGTTCCTTTAGTGCTAG	3.04 z-score
TTAGGTTTCGGTTTCGTTTAGTGCTAG	16.6 z-score
AACGATGCAAGTGCCCTTCGGTGCTAG	-0.0566 z-score
GACGGTATGCTACTGCTGACGTGCTAG	0.0726 z-score
TCATTTGTCCCTATTTAACTGTGCTAG	2.63 z-score
GACCGTTTCGGACTGGGGACGTGCTAG	2.27 z-score
AACGGTATCCTTCTCCTGACGTGCTAG	1.09 z-score
TCATCTCTGCTTGTATCACTGTGCTAG	2.01 z-score
GACGCTCTCCTTTTCCTGACGTGCTAG	2.19 z-score
CTCACCTCAGCCTCCCAAGTGTGCTAG	0.544 z-score
GACGGTATCGCCACTGGGGACGTGCTA	-0.46 z-score
TGCTCCTTATGGCTAAAGGGGTGCTAG	-0.0985 z-score
TACGAACTGGGGTATCGAGACGTGCTA	-0.044 z-score
TTAGGTATCCTACTGCTTTTGTGCTAG	0.59 z-score
TCACCTCTGCTGCTGGCACTGTGCTAG	0.716 z-score
TCAGGTCTCTTGTTCTCACTGTGCTAG	1.29 z-score
ATAGGTTTCGACACTGGGTTAGTGCTA	2.47 z-score

For quick reference, copied from above (set 3):
Oligonucleotide	RBNS enrichment (R)
AACCAAGCUGGGUCUAUAAGGAAUUGCACAUGAGAUGGCACACAUAUUUAUGCUGUCUGAAGGUCACGAUCAUGUUACCAUAUCAAGCUGAAAAUGUCACCACUAUCUGG	0.278
CCUAGUGUUAUCUGUUAUCUUACAAGCCUUUGCCUCUGUGCCUUUUCCUCAUGCUUUUUUGCUUAGAUUACUCUUUGACUGUACCUUCUGUUCAAAUUUGCUUCCUUCAU	0.896
CCGCUGACUCCUGCUGUGUCCUGAGGUGCAUUUCCUGUUGUACACACAAGGGCCAGGCUCCAUUCUCCCUCCCUUUCCACCAGUGCCACAGCCUCGUCUGGAAAAAGGAC	0.386
UUGGUGUCAACCUUUUUCACUGAAUAAAAAUUUAACUGGGUUAAAAAAGAAAAACAAUGAAAAAAAAUAAAGACACCGCCAUCACCUAUUUAAAUAUCCACUGUGUGUGU	0.742
AGGCCUCAACCCCCCACCAUCUGUCUGUCCUCAGGGACCCUCCAGUAGGGGGACCAUUGGGGACAUCACAGAAGCCACUGUCCAGAUGGGGCUCAGGCCAGUGGGUGUGG	0.293
UCCCCUUGUGGCUAAACGAAAGCAAAUGUCCGGAAGUCUUGAGAAGCUGUGUCGUGUUCCCUGUGGAAAUGAGUUGAUGUGUGCCAGUGCUGAGCACCUGGUAUUGAGGU	3.09
ACCUUGUGGCCGCCUGAGACCCUCGCGCCCCCCGCGCCCCUCUUUUUCCCCUUGAUGGAAAUUGACCAUACAAUUUCAUCCUCCUUCAGGGGAUCAAAAGGACGGAGUGG	0.243
